Published values collected from several papers.
Each line is one published result; not all experiments were run side by side. Values joined by “and” are separate records of one study, mostly repeats; a detail may differ.
Target: Receptor tyrosine-protein kinase erbB-2 (ERBB2, Homo sapiens, UniProt P04626)

Compound = CCCC[C@H](NC(=O)[C@H](CCC(=O)O)NC(=O)[C@H](CCCCN)NC(=O)[C@H](CO)NC(=O)[C@H](Cc1ccccc1)NC(C)=O)C(=O)N[C@@H](CCCNC(=N)N)C(=O)N[C@@H](CC(N)=O)C(=O)N[C@@H](CCCNC(=N)N)C(=O)N[C@@H](Cc1ccc(O)cc1)C(=O)N[C@@H](Cc1c[nH]c2ccccc12)C(=O)N[C@@H](CCCC(=O)NCCN(CC(=O)NCCN(CC(=O)NCCN(CC(=O)NCCN(CC(=O)N[C@@H](CCCNC(=N)N)C(N)=O)C(=O)Cn1cnc2c(=O)[nH]c(N)nc21)C(=O)Cn1ccc(N)nc1=O)C(=O)Cn1ccc(N)nc1=O)C(=O)Cn1cnc2c(=O)[nH]c(N)nc21)C(=O)N[C@@H](CS)C(=O)N[C@@H](C)C(=O)N[C@@H](CC(C)C)C(=O)N[C@@H](CC(=O)O)C(=O)N1CCC[C@H]1C(=O)N[C@@H](CC(N)=O)C(=O)N[C@@H](CC(C)C)C(=O)N[C@H](C(=O)N[C@@H](CC(N)=O)C(=O)N[C@@H](CCC(N)=O)C(=O)N[C@@H](CCC(N)=O)C(=O)N[C@@H](CCCCN)C(=O)N[C@@H](CCCNC(=N)N)C(=O)N[C@@H](C)C(=O)N[C@@H](CCCCNC(=O)CN(CCNC(=O)CN(CCNC(=O)CN(CCNC(=O)CN(CCNC(=O)[C@H](CCCNC(=N)N)NC(C)=O)C(=O)Cn1ccc(N)nc1=O)C(=O)Cn1cnc2c(=O)[nH]c(N)nc21)C(=O)Cn1cnc2c(=O)[nH]c(N)nc21)C(=O)Cn1ccc(N)nc1=O)C(=O)N[C@H](C(=O)N[C@@H](CCCNC(=N)N)C(=O)N[C@@H](CO)C(=O)N[C@H](C(=O)N[C@@H](Cc1ccc(O)cc1)C(=O)N[C@@H](CCC(=O)O)C(=O)N[C@@H](CCC(=O)O)C(=O)NCC(=O)N[C@@H](CCC(=O)O)C(N)=O)[C@@H](C)CC)[C@@H](C)CC)[C@@H](C)O; assay = binding, affinity selection mass spectrometry; setting = 1 h, 4 °C, unit not given; scale = reference: control-subtracted; endpoint = enrichment; value = 3.95
Compound = Nc1ncc(-c2cc(-c3cnn(CC(F)(F)F)c3)ncc2F)nc1C(=O)NC1CNCC(F)C1 (stereo not shown); assay = enzyme activity; setting = 1 µM; scale = reference: DMSO control; endpoint = remaining activity; value = 90.3%
Compound = CCN1CCN(Cc2ccc(C(=O)Nc3ccc(C)c(NCc4cnc5[nH]ccc5c4OC)c3)cc2C(F)(F)F)CC1; assay = binding, competition with immobilised ligand; setting = 1 µM; endpoint = remaining binding; value = 6.2%
Compound = COc1c(Cl)cccc1Nc1c(-c2ccncc2C#C[C@@]2(C)CCCN2C(=O)/C=C/CN(C)C)[nH]c2c1C(=O)NCC2; assay = binding, competition with immobilised ligand; setting = 3 µM; endpoint = remaining binding; value = 2.4%
Compound = CC(=O)N1c2ccc(-c3ccc(CNC(=O)c4cn5cc(-c6cnc(N)nc6)nc(N6CCOCC6)c5n4)cc3)cc2CC[C@@H]1C; assay = KINOMEscan; setting = 10 µM; endpoint = remaining binding; value = 91%
Compound = Cc1cccc(O[C@H]2CCC[C@@H](C(C)CNCc3ccncc3)C2)c1 (relative stereo); assay = enzyme activity, inhibitor; setting = 10 µM; endpoint = inhibition; value = -7%
Compound = CN1CCN(Cc2ccc(NC(=O)c3cccc(C#Cc4cnc(N)c5ncccc45)c3)cc2C(F)(F)F)CC1; assay = cell-free assay, competition with immobilised ligand; setting = 0.5 µM; endpoint = remaining binding; value = 2.1%
Compound = NC(=O)[C@@H](O)C[C@H]1CCc2sc3ncnc(O[C@H]4CC[C@H](N5CCOCC5)CC4)c3c21; assay = enzyme activity, inhibitor; setting = 10 µM; endpoint = inhibition; value = -32%
Compound = COCC12C(=O)NC3C4(C(OC)CC1O)C1CC5(O)C(OC)C(O)C(OC(C)=O)(C1C5OC(=O)c1ccccc1)C3(O)C(OC)C24 (stereo not shown); assay = kinase activity, inhibitor, ProQinase kinase profiling; setting = 25 µM; scale = reference: control; endpoint = remaining activity; value = 107% and 88%
Compound = CC[C@H](C)[C@H](NC(=O)[C@H](CCCCN)NC(=O)[C@H](C)NC(=O)[C@H](CCCNC(=N)N)NC(=O)[C@H](CCCCN)NC(=O)[C@H](CCC(N)=O)NC(=O)[C@H](CCC(N)=O)NC(=O)[C@H](CC(N)=O)NC(=O)[C@@H](NC(=O)[C@H](CC(C)C)NC(=O)[C@H](CC(N)=O)NC(=O)[C@@H]1CCCN1C(=O)[C@H](CC(=O)O)NC(=O)[C@H](CC(C)C)NC(=O)[C@H](C)NC(=O)[C@H](C)NC(=O)[C@H](CCC(=O)O)NC(=O)[C@H](Cc1c[nH]c2ccccc12)NC(=O)[C@H](Cc1ccc(O)cc1)NC(=O)[C@H](CCCNC(=N)N)NC(=O)[C@H](CC(N)=O)NC(=O)[C@H](CCCNC(=N)N)NC(=O)[C@H](CCSC)NC(=O)[C@H](CCC(=O)O)NC(=O)[C@H](CCCCN)NC(=O)[C@H](CO)NC(=O)[C@H](Cc1ccccc1)NC(C)=O)[C@@H](C)O)C(=O)N[C@@H](CCCNC(=N)N)C(=O)N[C@@H](CO)C(=O)N[C@H](C(=O)N[C@@H](Cc1ccc(O)cc1)C(=O)N[C@@H](CCC(=O)O)C(=O)N[C@@H](CCC(=O)O)C(=O)NCC(=O)N[C@@H](CCC(=O)O)C(N)=O)[C@@H](C)CC; assay = binding, SPR; setting = 25 °C; endpoint = dissociation rate constant; value = 0.0069 s⁻¹
Compound = Cc1nc2c(F)cc(-c3nc(Nc4ccc(CNC(=O)CCCCCCC(=O)NO)cc4)ncc3F)cc2n1C(C)C; assay = enzyme activity, inhibitor; setting = 1 µM; endpoint = inhibition; value = 38%
Compound = CNC1C[S+]2CC[S+]3CC[S+](C1)[Ru-4]321([N]=C=S)[n]2c3ccc(OC)cc3c3c4c(c5cc(F)c[n+]1c5c32)C(=O)NC4=O (stereo not shown); assay = KinomeScan; setting = 0.1 µM; scale = reference: untreated; endpoint = remaining binding; value = 100%
Compound = Cc1cnc2nc1Nc1cccc(c1)COC/C=C/COCc1cc(ccc1OCCN1CCOCC1)N2; assay = binding; setting = 0.1 µM; endpoint = remaining binding; value = 100%
Compound = COc1cc(Nc2nc(C)cc(-c3cnn4nc(OC)ccc34)n2)cc(C(F)(F)F)c1; assay = inhibitor; setting = 1 µM; scale = reference: control; endpoint = remaining activity; value = 100%
Compound = COc1cc(OC)c(F)c(/C=C/c2cnc3ccn(S(=O)(=O)c4cn(CCF)cn4)c3n2)c1F; setting = 10 nM; endpoint = inhibition; value = 0%
Compound = O=C(Nc1ccc(Oc2ncnc3[nH]cc(-c4ccccc4)c23)c(F)c1)c1c2n(n(-c3cc(F)ccc3F)c1=O)CCCC2; assay = enzyme activity, inhibitor; setting = 0.5 µM; endpoint = inhibition; value = 2%

Some of these lines once more:
Compound = COCC12C(=O)NC3C4(C(OC)CC1O)C1CC5(O)C(OC)C(O)C(OC(C)=O)(C1C5OC(=O)c1ccccc1)C3(O)C(OC)C24 (stereo not shown); assay = kinase activity, inhibitor, ProQinase kinase profiling; setting = 25 µM; scale = reference: control; endpoint = remaining activity; value = 107% and 88%
